# Measurements of several laboratories.
# Lines come from different studies, so protocols differ. Values joined by “and” are separate records of one study, mostly repeats; a detail may differ. ± gives the spread as reported.
Compound,test,test system,setting,quantity,value
CN1CCN(Cc2ccc(NC(=O)c3cncc(C#Cc4cnc(N)c5ncccc45)c3)cc2C(F)(F)F)CC1,,rat,"oral, dose not given",oral bioavailability,~30%
COc1ccc2c(c[n+](C)c3c4cc5c(cc4ccc23)OCO5)c1OC,LC-MS/MS,"rat, plasma",dose not given,AUC(0-inf),74300 ng·h/mL
O=c1cc(-c2ccc(O)c(O)c2)oc2cc(O)cc(O)c12,,"male Sprague-Dawley rat, lean","oral, 100 mg/kg of neohesperidin, 0 to 12 h",faecal excreted amount,50 ± 22.6 ng
Clc1ccc(-c2ccccc2)cc1,,"rat Sprague-Dawley female, serum","inhalation, 23 µg/rat, 4 h",serum triglycerides,59 ± 40 mg/dL
CCCCCCCCCCCCCCCC(=O)N[C@@H](CCC(=O)NCCCC[C@H](NC(=O)[C@H](CC(=O)O)NC(=O)[C@H](CO)NC(=O)[C@@H](NC(=O)[C@H](Cc1ccccc1)NC(=O)[C@@H](NC(=O)CNC(=O)[C@H](CCC(N)=O)NC(=O)[C@H](CO)NC(=O)[C@@H](N)Cc1c[nH]cn1)[C@@H](C)O)[C@@H](C)O)C(=O)N[C@@H](CO)C(=O)N[C@@H](CCC(=O)O)C(=O)N[C@@H](Cc1ccc(O)cc1)C(=O)N[C@@H](CC(C)C)C(=O)N[C@@H](CC(=O)O)C(=O)N[C@@H](CO)C(=O)N[C@@H](CCC(=O)O)C(=O)N[C@@H](CCCNC(=N)N)C(=O)N[C@@H](C)C(=O)N[C@@H](CCCNC(=N)N)C(=O)N[C@@H](CC(=O)O)C(=O)N[C@@H](Cc1ccccc1)C(=O)N[C@H](C(=O)N[C@@H](C)C(=O)N[C@@H](Cc1c[nH]c2ccccc12)C(=O)N[C@@H](CC(C)C)C(=O)N[C@@H](CCC(=O)O)C(=O)N[C@@H](C)C(=O)NCC(=O)NCC(=O)O)C(C)C)C(=O)O,item: Dizziness,humans CrCl 45 to 60 mL/min,"subcutaneous, 100 µg single dose",treatment-related adverse events,0%
C[C@@H]1OC(=O)NN=C1c1ccc(-c2ccc(F)cc2)c(C(F)(F)F)c1,"phase I trial, item: platelet count decreased all grades",human patients,20 mg loading then 1 mg daily,patients with adverse event,100%
Cc1ccc(S(=O)(=O)Nc2c(N[C@H]3CC[C@H](NC(=O)Nc4ccc(F)c(Cl)c4)CC3)c(=O)c2=O)cc1,,"rat, plasma","intravenous, 10 mg/kg",AUC(0-inf),1.85 µM·h
CC(C)=CC1C(C(=O)OC(C#N)c2cccc(Oc3ccccc3)c2)C1(C)C (stereo not shown),item: CYP3A5,"human, age 1 year",,enzyme contribution to clearance,0.25%
O=C(Nc1ccccc1)C1CCN(C(=O)Oc2cccnc2)CC1,adverse event reporting,healthy women,"oral, 20 mg",subjects with Syncope adverse event,7.1%
CO[C@H]1C[C@@H]2CC[C@@H](C)[C@@](O)(O2)C(=O)C(=O)N2CCCC[C@H]2C(=O)O[C@H]([C@H](C)C[C@@H]2CC[C@@H](OC(=O)NCCOCCOCCOCCOCCOCCOCCOCCOCCC(=O)N3CCc4cc(Cn5nc(-c6ccc7oc(N)nc7c6)c6c(N)ncnc65)ccc4C3)[C@H](OC)C2)C[C@@H](O)[C@H](C)/C=C(\C)[C@@H](O)[C@@H](OC)C(=O)[C@H](C)C[C@H](C)/C=C/C=C/C=C/1C,"phase 1 dose escalation, item: mucositis",advanced solid tumour patients,"intravenous, 16 mg weekly, grade ≥3",dose-reducing adverse events,0%
COc1ncccc1-c1cnn2ccc(N3CCN(C(=O)OC(C)C)CC3)nc12,,"mouse, open field test, brain","oral, 60 mg/kg, 60 min",drug concentration,60 µM
CCN(CCO)CCCC(C)Nc1ccnc2cc(Cl)ccc12 (stereo not shown),item: Infections grade 3,newly diagnosed glioblastoma patients,"oral, 800 mg/dose, with radiotherapy and temozolomide",patients with adverse event,66%
O=C(Oc1ccccc1)[c-]1cccc1.[Fe+2].c1cc[cH-]c1,cyclic voltammetry,methanol/DMEM 1:1 with TBAPF6,"Pt disk electrode, Ag/AgCl reference, added: scan rate 100 mV/s",oxidation potential,653 mV
CC(C)[C@@H]1NC(=O)CNC(=O)[C@H](CC(N)=O)NC(=O)[C@H](CCCNC(=N)N)NC(=O)[C@H](Cc2ccc(O)cc2)NC(=O)[C@H](C(C)C)NC(=O)[C@@H](NC(=O)[C@@H](NC(=O)[C@H](CC(N)=O)NC(=O)[C@H](Cc2c[nH]c3ccccc23)NC(=O)[C@H](C)NC(=O)[C@H](Cc2ccccc2)NC(=O)CN)C(C)C)CSSC[C@@H](C(=O)N[C@@H](Cc2cnc[nH]2)C(=O)N[C@@H](CCCNC(=N)N)C(=O)N[C@@H](CCCNC(=N)N)C(=O)N[C@@H](C)C(=O)N[C@@H](CC(N)=O)C(N)=O)NC(=O)[C@H](C(C)C)NC(=O)[C@H](CCCNC(=N)N)NC1=O,,"ICR mice, blood","intraductal mammary, 10 mg/kg, day 5",mean platelet volume,6.43 ± 0.27 fL
O=S(=O)(Nc1ccccc1)c1ccc(NC(=S)Nc2ccccc2)cc1,,"female mouse, blood","oral, 20 mg/kg daily, 14 days",chloride level,110 mmol/L
COc1cc2c(Oc3ccc4[nH]c(C)cc4c3F)ccnc2cc1OCC1(N)CC1,,paediatric recurrent refractory sarcoma,12 mg,grade 3 blurred vision,0%
C[C@@H](c1nc(-c2ccc(C#N)cc2)cs1)[C@](O)(Cn1cncn1)c1cc(F)ccc1F,,healthy humans,"oral, dose not given, added: midazolam",adverse event Somnolence,0%
COc1ccc2nc3cc(Cl)ccc3c(Nc3cc(CN4CCCC4)c(O)c(CN4CCCC4)c3)c2n1,,"mouse, blood","intraperitoneal, 57 mg/kg",eosinophils,13.1%
C[C@H]1CN(C(=O)CC#N)[C@]12CCN(c1ncnc3[nH]ccc13)C2,,dog male,"oral, 0.6 mg/kg repeated daily, 9 months, repeated-dose toxicity study",Cmax at NOAEL,270 ng/mL
CCc1ccc(CC/C=C/c2ccc3c(c2)C(=O)CC3)cc1,,"Sprague-Dawley rat, female","oral, 450 mg/kg/day, 14 days",Fibrinogen,2.8 g/L
COc1ccc(-c2c(-c3ccc(C#N)c(F)c3)nc(N3CCC(N)CC3)n(C)c2=O)cc1F,item: Cystitis,human patients,"oral, 60 mg, dose expansion",serious adverse event incidence,0%
COc1cccc(-c2nsc(=O)o2)c1,,RPMI medium,"concentration not given, 37 °C, spontaneous hydrolysis",hydrolysis half-life,43.6 min
O=C(c1ccc(F)c(F)c1Nc1ccc(I)cc1F)N1CC(O)([C@@H]2CCCCN2)C1,,human patients,"oral, 1 mg/kg, age ≥18 years",adverse events of special interest,100%
COc1ncnn2ccc(-c3cnc4nc(C)n(Cc5nnc([C@@H](C)F)o5)c4c3)c12,,human patients,"oral, dose not given",incidence of grade ≥3 decreased WBC,14.3%
CN1CC[C@@H](c2c(O)cc(O)c3c(=O)cc(-c4ccc(C(F)(F)F)cc4Cl)oc23)[C@@H]1CO,item: Pyrexia,relapsed or refractory haematological malignancies,"oral, dose not given, all arms",patients with adverse event,10%
COc1ccc(C[C@@H]2NC(=O)[C@H]([C@@H](C)O)NC(=O)[C@@H]3[C@@H]4CCN3C(=O)[C@@H]3Cc5cn(c6ccc(F)cc56)CCCCCCN(Cc5ccc(cc5)CCNC(=O)[C@]5(C)CCCN5C2=O)C(=O)CCC(=O)N[C@@H](C)C(=O)N[C@H](CNC(=O)CCCCC[N+](C)(C)C)C(=O)N[C@@H](Cc2cccc(c2)CNC(=O)CO4)C(=O)N3)cc1,item: impaired fasting glucose,human,dose not given,participants with adverse event,6.5%
C[C@]1(CO)Cc2ncn(-c3ccc(C#N)c(Cl)c3)c2C(=O)O1,investigator-assessed,human,2 mg single dose,subjects with drug-related TEAEs,16.7%
C[C@]1(O)C[C@@](N)(c2ccc(-c3nc4n(c3-c3ccccc3)COc3ccncc3-4)cc2)C1,,"human, advanced or metastatic solid tumours","24 mg intermittent, phase I dose escalation",patients with AST increased,0%
CCC[C@@](N)(CO)CCc1ccc(OCCCCCC(C)C)cc1,,"dog, male hounds, plasma","oral capsule, 15 mg/kg, geometric mean",Cmax,0.428 µM
O=C(O)CCCOc1ccc(F)cc1-c1cc(-c2ccccc2C(F)(F)F)n(-c2ccccc2)n1,item: UN,"Crl:CD(SD) rats, female, blood","iv, 25 µg/kg, 14 days",blood chemistry,14.1 ± 1.3 mg/dL
CN[C@@H](C)C(=O)N[C@H]1CN(S(=O)(=O)c2cccc(S(=O)(=O)N3CC[C@H]4CC[C@@H](C(=O)NC(c5ccccc5)c5ccccc5)N4C(=O)[C@@H](NC(=O)[C@H](C)NC)C3)c2)CC[C@H]2CC[C@@H](C(=O)NC(c3ccccc3)c3ccccc3)N2C1=O,,patients advanced solid tumours,"dose not given, all grades all doses",treatment-related pruritus,3.6%
Oc1c(Cl)cc2c(c1Cl)Oc1cc(Cl)c(Cl)cc1O2,ultrafiltration,cow milk whey,100 nM nominal in whole milk,final permeate concentration,9.09 nM
CC(C)C[C@H](NC(=O)[C@H](CCCCN)NC(=O)OCC1c2ccccc2-c2ccccc21)C(=O)N[C@H](C(=O)N[C@@H](Cc1ccccc1)C(=O)N[C@@H](Cc1ccccc1)C(=O)N[C@@H](CCCCN)C(=O)NCC(=O)N[C@@H](Cc1ccccc1)C(=O)N[C@@H](C)C(=O)N[C@@H](Cc1c[nH]c2ccccc12)C(=O)N[C@@H](CC(N)=O)C(=O)N[C@H](C(=O)N[C@H]1CSSC[C@@H](C(=O)N[C@@H](Cc2c[nH]cn2)C(=O)N[C@@H](CCCNC(=N)N)C(=O)N[C@@H](CCCNC(=N)N)C(=O)N[C@@H](C)C(=O)N[C@@H](CC(N)=O)C(N)=O)NC(=O)[C@H](C(C)C)NC(=O)[C@H](CCCNC(=N)N)NC(=O)[C@H](C(C)C)NC(=O)CNC(=O)[C@H](CC(N)=O)NC(=O)[C@H](CCCNC(=N)N)NC(=O)[C@H](Cc2ccc(O)cc2)NC(=O)[C@H](C(C)C)NC1=O)C(C)C)C(C)C,,"ICR mice, blood","intraperitoneal, 10 mg/kg, day 5",mean platelet volume,6.33 ± 0.09 fL
COc1cccc(Oc2ccccc2NC(=O)CNC(=O)c2cccc3ccccc23)c1,,"esterase-deficient SCID mice, male, blood","oral, 15 mg/kg/day, 14 days, toxicity study",mean corpuscular volume,48 fL and 46 fL and 47 fL
